Measured values of several laboratories.
Numbered parts are unrelated; each lists some results of a single study. Values joined by “and” are separate records of one study, mostly repeats; a detail may differ.
Sequence of UniProt P51451 (whole entry, looked up): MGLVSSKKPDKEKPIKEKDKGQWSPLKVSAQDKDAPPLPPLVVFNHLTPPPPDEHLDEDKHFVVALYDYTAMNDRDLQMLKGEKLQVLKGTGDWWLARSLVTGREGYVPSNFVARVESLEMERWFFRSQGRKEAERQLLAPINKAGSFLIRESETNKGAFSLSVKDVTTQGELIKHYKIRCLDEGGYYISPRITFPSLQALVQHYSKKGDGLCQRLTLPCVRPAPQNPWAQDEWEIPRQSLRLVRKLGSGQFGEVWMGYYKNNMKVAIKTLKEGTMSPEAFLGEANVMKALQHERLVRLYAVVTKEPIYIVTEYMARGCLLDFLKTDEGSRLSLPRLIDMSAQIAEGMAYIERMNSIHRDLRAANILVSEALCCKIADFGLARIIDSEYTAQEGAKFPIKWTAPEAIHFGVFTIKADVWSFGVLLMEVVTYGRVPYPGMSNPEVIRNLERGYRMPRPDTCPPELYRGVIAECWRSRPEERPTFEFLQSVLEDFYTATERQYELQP
Sequence of UniProt P21802 (whole entry, looked up): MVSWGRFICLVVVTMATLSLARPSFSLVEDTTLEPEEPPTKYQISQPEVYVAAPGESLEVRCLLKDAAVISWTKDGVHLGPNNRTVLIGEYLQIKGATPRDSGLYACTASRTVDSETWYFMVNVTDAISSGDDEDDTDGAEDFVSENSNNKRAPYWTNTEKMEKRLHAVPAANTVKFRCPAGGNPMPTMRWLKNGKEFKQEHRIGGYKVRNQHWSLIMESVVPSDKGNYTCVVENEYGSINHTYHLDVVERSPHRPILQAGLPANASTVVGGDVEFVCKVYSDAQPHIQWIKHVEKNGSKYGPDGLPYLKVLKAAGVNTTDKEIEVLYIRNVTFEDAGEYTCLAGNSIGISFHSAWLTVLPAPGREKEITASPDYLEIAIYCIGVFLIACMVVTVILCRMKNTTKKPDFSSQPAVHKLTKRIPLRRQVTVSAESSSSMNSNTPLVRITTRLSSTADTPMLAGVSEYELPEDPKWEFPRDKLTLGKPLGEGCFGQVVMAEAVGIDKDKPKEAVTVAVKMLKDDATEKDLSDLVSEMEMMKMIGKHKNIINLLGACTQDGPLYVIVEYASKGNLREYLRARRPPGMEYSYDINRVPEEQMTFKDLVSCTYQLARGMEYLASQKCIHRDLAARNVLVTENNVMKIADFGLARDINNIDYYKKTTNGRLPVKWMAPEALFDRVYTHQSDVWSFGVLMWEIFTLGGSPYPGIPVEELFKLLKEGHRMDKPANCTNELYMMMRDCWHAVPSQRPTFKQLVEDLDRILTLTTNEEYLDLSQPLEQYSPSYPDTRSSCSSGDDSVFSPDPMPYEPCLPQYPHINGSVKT
Sequence of UniProt O15146 (whole entry, looked up): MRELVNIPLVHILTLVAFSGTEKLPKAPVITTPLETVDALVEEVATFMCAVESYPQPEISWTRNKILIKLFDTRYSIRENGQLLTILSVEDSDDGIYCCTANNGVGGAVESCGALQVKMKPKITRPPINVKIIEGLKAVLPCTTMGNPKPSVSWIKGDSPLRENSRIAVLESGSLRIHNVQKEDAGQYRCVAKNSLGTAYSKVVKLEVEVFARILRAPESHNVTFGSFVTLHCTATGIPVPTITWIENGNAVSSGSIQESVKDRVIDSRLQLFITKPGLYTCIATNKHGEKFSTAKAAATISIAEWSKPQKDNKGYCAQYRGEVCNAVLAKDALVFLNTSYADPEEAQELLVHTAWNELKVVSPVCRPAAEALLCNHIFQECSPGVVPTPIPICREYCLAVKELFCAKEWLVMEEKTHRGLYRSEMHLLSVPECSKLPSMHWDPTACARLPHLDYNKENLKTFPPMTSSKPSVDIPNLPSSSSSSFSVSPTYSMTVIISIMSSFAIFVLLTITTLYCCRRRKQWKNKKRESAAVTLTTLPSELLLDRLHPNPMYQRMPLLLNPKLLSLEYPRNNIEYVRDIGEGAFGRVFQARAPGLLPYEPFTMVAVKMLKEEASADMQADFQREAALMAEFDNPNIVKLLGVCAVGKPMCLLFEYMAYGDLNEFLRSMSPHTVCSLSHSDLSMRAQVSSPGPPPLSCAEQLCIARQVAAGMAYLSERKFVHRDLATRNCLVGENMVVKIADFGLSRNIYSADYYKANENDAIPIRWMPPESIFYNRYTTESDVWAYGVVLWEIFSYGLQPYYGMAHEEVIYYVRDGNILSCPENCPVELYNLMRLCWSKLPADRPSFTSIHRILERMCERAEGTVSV
Sequence of UniProt P50750 (whole entry, looked up): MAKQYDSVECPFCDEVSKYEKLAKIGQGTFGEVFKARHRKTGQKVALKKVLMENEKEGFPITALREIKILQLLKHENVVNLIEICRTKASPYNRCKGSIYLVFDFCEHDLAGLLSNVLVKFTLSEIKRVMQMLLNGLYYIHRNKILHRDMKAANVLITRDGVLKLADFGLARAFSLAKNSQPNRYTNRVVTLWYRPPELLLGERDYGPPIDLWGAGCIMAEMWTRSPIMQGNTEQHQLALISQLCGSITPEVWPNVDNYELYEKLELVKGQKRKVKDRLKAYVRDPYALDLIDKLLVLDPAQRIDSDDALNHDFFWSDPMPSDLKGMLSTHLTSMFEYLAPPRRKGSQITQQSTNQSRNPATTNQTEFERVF
Sequence of UniProt Q13557 (whole entry, looked up): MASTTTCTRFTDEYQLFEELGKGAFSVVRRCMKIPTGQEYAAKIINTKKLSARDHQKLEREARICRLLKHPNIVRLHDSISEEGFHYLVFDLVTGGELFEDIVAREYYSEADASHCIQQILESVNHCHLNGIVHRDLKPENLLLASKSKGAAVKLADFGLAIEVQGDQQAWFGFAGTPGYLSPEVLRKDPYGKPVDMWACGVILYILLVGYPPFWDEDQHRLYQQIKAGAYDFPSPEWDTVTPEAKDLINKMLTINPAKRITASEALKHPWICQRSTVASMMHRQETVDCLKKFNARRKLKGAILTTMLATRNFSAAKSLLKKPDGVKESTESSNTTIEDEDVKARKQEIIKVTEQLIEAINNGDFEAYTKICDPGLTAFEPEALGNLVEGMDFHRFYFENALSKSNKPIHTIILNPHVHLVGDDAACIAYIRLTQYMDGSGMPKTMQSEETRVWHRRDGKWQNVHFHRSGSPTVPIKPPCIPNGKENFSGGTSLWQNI
Sequence of UniProt P78362 (whole entry, looked up): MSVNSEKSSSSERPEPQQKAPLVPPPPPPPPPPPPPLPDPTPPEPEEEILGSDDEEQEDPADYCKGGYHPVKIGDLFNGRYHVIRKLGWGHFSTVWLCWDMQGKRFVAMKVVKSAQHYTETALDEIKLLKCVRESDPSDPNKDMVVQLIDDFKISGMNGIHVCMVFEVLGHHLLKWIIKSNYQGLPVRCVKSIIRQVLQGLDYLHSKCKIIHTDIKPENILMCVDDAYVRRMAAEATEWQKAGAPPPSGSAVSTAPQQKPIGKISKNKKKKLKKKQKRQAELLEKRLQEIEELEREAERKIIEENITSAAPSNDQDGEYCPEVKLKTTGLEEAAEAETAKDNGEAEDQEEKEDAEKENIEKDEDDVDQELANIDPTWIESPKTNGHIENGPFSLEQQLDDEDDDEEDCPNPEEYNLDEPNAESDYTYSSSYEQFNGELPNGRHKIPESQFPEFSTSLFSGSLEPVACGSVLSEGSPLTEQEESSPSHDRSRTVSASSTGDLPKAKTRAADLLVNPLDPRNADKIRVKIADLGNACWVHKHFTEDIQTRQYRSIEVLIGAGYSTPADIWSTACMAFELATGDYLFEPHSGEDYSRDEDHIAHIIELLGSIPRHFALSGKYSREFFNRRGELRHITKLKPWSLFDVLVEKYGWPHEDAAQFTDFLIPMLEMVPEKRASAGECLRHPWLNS

Block 1 — tested at: 1 µM; quantity: remaining binding
SMILES: CCC1(c2cccc(-c3cn(C)nc3C)c2)C2=C(Nc3n[nH]cc31)C(F)C(C)(C)CC2=O (single isomer, unassigned)
DDR1 (Homo sapiens, UniProt Q08345); binding, competition with immobilised ligand: 95%
EGFR (Homo sapiens, UniProt P00533, A750P/del747-749); binding, competition with immobilised ligand: 100%
FGFR3 (Homo sapiens, UniProt P22607); binding, competition with immobilised ligand: 100%
CLK2 (Homo sapiens, UniProt P49760); kinase binding, KINOMEscan; baseline: DMSO control: 100%
ALK (Homo sapiens, UniProt Q9UM73); kinase binding, KINOMEscan; baseline: DMSO control: 84%
MARK2 (Homo sapiens, UniProt Q7KZI7); kinase binding, KINOMEscan; baseline: DMSO control: 98%
Receptor-type tyrosine-protein kinase FLT3, autoinhibited (FLT3, Homo sapiens, UniProt P36888); binding, competition with immobilised ligand: 100%
WEE1 (Homo sapiens, UniProt P30291); kinase binding, KINOMEscan; baseline: DMSO control: 100%
Ribosomal protein S6 kinase alpha-6, C-terminal kinase domain (RPS6KA6, Homo sapiens, UniProt Q9UK32); binding, competition with immobilised ligand: 100%
ABL2 (Homo sapiens, UniProt P42684); kinase binding, KINOMEscan; baseline: DMSO control: 100%
Ribosomal protein S6 kinase alpha-1, N-terminal kinase domain (RPS6KA1, Homo sapiens, UniProt Q15418); binding, competition with immobilised ligand: 99%
GRK2 (Homo sapiens, UniProt P25098); kinase binding, KINOMEscan; baseline: DMSO control: 94%
WEE2 (Homo sapiens, UniProt P0C1S8); kinase binding, KINOMEscan; baseline: DMSO control: 100%
EPHA2 (Homo sapiens, UniProt P29317); kinase binding, KINOMEscan; baseline: DMSO control: 100%

Block 2 — cell line: HCC1569; method: in-cell western; item: CDK1 phospho-Thr14; tested at: 41.15 nM; quantity: pCDK1 (Thr14) level
Cc1ccc(O)c(C)c1-c1cnc2[nH]c(-c3cnc(N4CCC(CN5CCN(c6ccc7c(c6)CN(C6CCC(=O)NC6=O)C7=O)CC5)CC4)nc3)cc2c1C#N (stereo not drawn): 39.9 RLU and 42.2 RLU
Cc1ncc(-c2cc3c(C(F)(F)F)c(-c4c(C)ccc(O)c4C)cnc3[nH]2)cn1: 20.5 RLU and 11.9 RLU
Cc1ccc(O)c(C)c1-c1cnc2[nH]c(-c3cnc(N4CCC5(CC4)CC(CN4CCN(c6ccc(NC7CCC(=O)NC7=O)cc6F)CC4)C5)nc3)cc2c1C#N (stereo not drawn): 23.5 RLU and 33.5 RLU
Cc1ccc(O)c(C)c1-c1cnc2[nH]c(-c3cnc(N4CCC(CCN5CCN(c6ccc(NC7CCC(=O)NC7=O)cc6F)CC5)CC4)nc3)cc2c1C#N (stereo not drawn): 63.3 RLU and 49.6 RLU
Cc1ccc(O)c(C)c1-c1cnc2[nH]c(-c3cnc(N)nc3)cc2c1C#N: 31.4% and 40.6%
Cc1ccc(O)c(C)c1-c1cnc2[nH]c(-c3cnc(N4CCC(CCN5CCN(c6ccc(N7CCC(=O)NC7=O)cc6F)CC5)CC4)nc3)cc2c1C#N: 15.6 RLU and 18.1 RLU

Block 3 — observed: kinase activity; quantity: inhibition
SMILES: CNc1ncc2cc(-c3cc(OC)cc(OC)c3Cl)c(=O)n(CCc3ccc(NC(=O)C(C#N)=CC(C)(C)N4CCOCC4)cc3)c2n1
CAMK4: Calcium/calmodulin-dependent protein kinase type IV (CAMK4, Homo sapiens, UniProt Q16566)
Sequence of UniProt Q16566 (whole entry, looked up): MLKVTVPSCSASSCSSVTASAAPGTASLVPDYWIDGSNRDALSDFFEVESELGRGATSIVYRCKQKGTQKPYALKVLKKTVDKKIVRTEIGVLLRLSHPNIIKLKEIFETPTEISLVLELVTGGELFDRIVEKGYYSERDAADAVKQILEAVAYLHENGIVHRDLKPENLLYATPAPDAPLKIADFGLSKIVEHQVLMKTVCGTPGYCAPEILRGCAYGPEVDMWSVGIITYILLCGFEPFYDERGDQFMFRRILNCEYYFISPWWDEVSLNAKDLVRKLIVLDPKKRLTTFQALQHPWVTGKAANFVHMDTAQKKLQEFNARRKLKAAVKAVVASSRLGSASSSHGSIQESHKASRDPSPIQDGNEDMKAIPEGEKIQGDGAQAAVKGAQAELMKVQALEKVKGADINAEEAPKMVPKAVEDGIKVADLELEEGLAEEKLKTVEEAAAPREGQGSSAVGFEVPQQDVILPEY
Insulin receptor (INSR, Homo sapiens, UniProt P06213); 0.1 µM: 5%
NUAK1 (Homo sapiens, UniProt O60285); 0.1 µM: 2%
CHEK1 (Homo sapiens, UniProt O14757); 1 µM: 4%
CAMK4; 0.1 µM: 4%
PAK4 (Homo sapiens, UniProt O96013); 0.1 µM: -1%
STK24 (Homo sapiens, UniProt Q9Y6E0); 0.1 µM: 1%
STK25 (Homo sapiens, UniProt O00506); 0.1 µM: 2%
CDK7 (Homo sapiens, UniProt P50613); 1 µM: 0%
BLK (Homo sapiens, UniProt P51451); 0.1 µM: -1%
CDK2 (Homo sapiens, UniProt P24941); 0.1 µM: -1%
CAMK2D (Homo sapiens, UniProt Q13557); 1 µM: 7%
FGFR2 (Homo sapiens, UniProt P21802); 0.1 µM: 96% and > 90%
PIK3CB (Homo sapiens, UniProt P42338); 0.1 µM: -6%
CAMK4; 1 µM: 5%
PRKD1 (Homo sapiens, UniProt Q15139); 1 µM: 0%
DYRK2 (Homo sapiens, UniProt Q92630); 1 µM: 0%
MUSK (Homo sapiens, UniProt O15146); 1 µM: 1%
PAK1 (Homo sapiens, UniProt Q13153); 1 µM: -10%

Block 4 — observed: enzyme activity; action: inhibitor; method: fluorescence; quantity: IC50
Target: Myeloperoxidase (MPO, Homo sapiens, UniProt P05164)
Sequence of UniProt P05164 (whole entry, looked up): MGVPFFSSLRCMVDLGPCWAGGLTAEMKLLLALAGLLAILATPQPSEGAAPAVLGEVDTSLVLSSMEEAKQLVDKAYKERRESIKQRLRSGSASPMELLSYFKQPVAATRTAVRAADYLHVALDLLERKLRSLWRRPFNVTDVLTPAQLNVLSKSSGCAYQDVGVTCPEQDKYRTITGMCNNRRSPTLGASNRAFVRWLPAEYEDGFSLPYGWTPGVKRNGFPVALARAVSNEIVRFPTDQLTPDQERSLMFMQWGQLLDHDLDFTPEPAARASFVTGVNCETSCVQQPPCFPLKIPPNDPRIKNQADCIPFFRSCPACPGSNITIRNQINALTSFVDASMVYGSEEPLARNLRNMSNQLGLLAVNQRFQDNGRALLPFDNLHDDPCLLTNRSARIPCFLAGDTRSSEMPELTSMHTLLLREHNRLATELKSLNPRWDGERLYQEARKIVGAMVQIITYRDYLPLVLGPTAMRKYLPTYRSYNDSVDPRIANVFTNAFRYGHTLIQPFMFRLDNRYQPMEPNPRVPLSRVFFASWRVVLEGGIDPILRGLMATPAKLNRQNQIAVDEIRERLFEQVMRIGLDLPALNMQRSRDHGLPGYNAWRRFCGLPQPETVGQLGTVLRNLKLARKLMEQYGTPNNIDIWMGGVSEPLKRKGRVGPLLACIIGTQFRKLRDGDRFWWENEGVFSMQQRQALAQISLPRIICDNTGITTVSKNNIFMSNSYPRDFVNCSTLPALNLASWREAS
NC/C(=C\F)COc1ccc(C(F)(F)F)c(Cn2c(=S)[nH]c(=O)c3[nH]cnc32)c1: 60 nM
Cc1c[nH]c2c(=O)[nH]c(=S)n(Cc3cc(F)cc(OC/C(=C/F)CN)c3)c12: 4 nM
NC/C(=C\F)COc1cc(Cn2c(=S)[nH]c(=O)c3[nH]ccc32)ccc1Cl: 10 nM
Cc1cc2c([nH]1)c(=O)[nH]c(=S)n2Cc1cccc(OC/C(=C/F)CN)c1: 1390 nM

Block 5 — quantity: remaining binding
Structure (SMILES): COc1cc(-c2nc3ccc(C(=O)NCCCN(C)C)cc3n2C2CCC2)cc(OC)c1OC
PLK2 (Homo sapiens, UniProt Q9NYY3); binding, competition with immobilised ligand; 1 µM: 86%
PDGFRB (Homo sapiens, UniProt P09619); binding, competition with immobilised ligand; 1 µM: 100%
Tyrosine-protein kinase JAK1, JH1 (JAK1, Homo sapiens, UniProt P23458); binding, competition with immobilised ligand; 1 µM: 94%
STK17A (Homo sapiens, UniProt Q9UEE5); binding, competition with immobilised ligand; 1 µM: 100%
TXK (Homo sapiens, UniProt P42681); binding, competition with immobilised ligand; 1 µM: 98%
MAP3K15 (Homo sapiens, UniProt Q6ZN16); binding, competition with immobilised ligand; 1 µM: 81%
Tyrosine-protein kinase ABL1, non-phosphorylated (ABL1, Homo sapiens, UniProt P00519, T315I); binding, competition with immobilised ligand; 1 µM: 100%
Tyrosine-protein kinase ABL1, non-phosphorylated (ABL1, Homo sapiens, UniProt P00519, F317L); binding, competition with immobilised ligand; 1 µM: 44%
MUSK (Homo sapiens, UniProt O15146); binding, competition with immobilised ligand; 1 µM: 88%
MAPK7 (Homo sapiens, UniProt Q13164); binding, competition with immobilised ligand; 1 µM: 99%
CDK11A (Homo sapiens, UniProt Q9UQ88); binding, competition with immobilised ligand; 1 µM: 100%
Cyclin-dependent kinase 4, with cyclin D3 (CDK4, Homo sapiens, UniProt P11802); binding, competition with immobilised ligand; 1 µM: 98%
CDK9 (Homo sapiens, UniProt P50750); binding, competition with immobilised ligand; 1 µM: 94%
FLT4 (Homo sapiens, UniProt P35916); binding, competition with immobilised ligand; 1 µM: 100%
BRSK1 (Homo sapiens, UniProt Q8TDC3); binding, competition with immobilised ligand; 1 µM: 97%
KIT (Homo sapiens, UniProt P10721, V559D); binding, competition with immobilised ligand; 1 µM: 100%
CDK14 (Homo sapiens, UniProt O94921); binding, competition with immobilised ligand; 1 µM: 100%
MARK1 (Homo sapiens, UniProt Q9P0L2); binding, competition with immobilised ligand; 1 µM: 64%
BLK (Homo sapiens, UniProt P51451); binding, competition with immobilised ligand; 1 µM: 84%
FLT3 ITD human; KINOMEscan; 1000 nM; baseline: DMSO control: 100%
PIK3CA (Homo sapiens, UniProt P42336, M1043I); binding, competition with immobilised ligand; 1 µM: 74%
RAF1 (Homo sapiens, UniProt P04049); binding, competition with immobilised ligand; 1 µM: 78%
MAP2K5 (Homo sapiens, UniProt Q13163); binding, competition with immobilised ligand; 1 µM: 76%
SRPK1 (Homo sapiens, UniProt Q96SB4); binding, competition with immobilised ligand; 1 µM: 95%
SRPK2 (Homo sapiens, UniProt P78362); binding, competition with immobilised ligand; 1 µM: 100%

Block 6 — cell line: NCI-H292; method: CellTiter-Glo; time: 72 h; quantity: viability
Structure (SMILES): Cn1ncc2c1N(CCCCNC/C=C/C#N)c1cc(Cl)ccc1CC2.O=C(O)/C=C\C(=O)O
50 µM: -0.528% and -0.34% and -0.647%
0.05 µM: 96.6% and 107% and 108%
5 µM: 21.1% and 23.6% and 23.2%
0.005 µM: 105% and 103%
0.5 µM: 102% and 94.4%

Block 7 — cell line: U-87 MG; tested at: concentration not given; baseline: DMSO; quantity: log2 fold change
SMILES: CCN1/C(=C/C=C2\CCCC(/C=C/C3=[N+](CC)c4ccccc4C3(C)C)=C2NCCCCCCCCN2CCC(Nc3nc4ccccc4n3Cc3ccc(F)cc3)CC2)C(C)(C)c2ccccc21
item: ANKRD36B mRNA: -1.35
item: CNIH1 mRNA: 0.837
item: KBTBD8 mRNA: 2.38
item: NCAPG2 mRNA: -1.48
item: CYTH4 mRNA: -2.2
item: HMMR mRNA: -1.31
item: FEN1 mRNA: -1.68
item: TSGA10 mRNA: 0.997
item: LAPTM4B mRNA: -0.83
item: ANGPTL2 mRNA: -1.86
item: FBXO5 mRNA: -1.67
item: RAPGEFL1 mRNA: -1.23
item: CADM1 mRNA: 2.4
item: SRXN1 mRNA: 1.45
item: ERCC6L mRNA: -2.86
item: RNF13 mRNA: 0.918

Other studies, line by line
VHL with Elongin B/C: von Hippel-Lindau disease tumor suppressor, with Elongin B/C (VHL, Homo sapiens, UniProt P40337)
Cc1ncsc1-c1ccc(C(CO)NC(=O)C2CC(O)CN2C(=O)C(C(C)C)n2cc(-c3ccc(COc4c(-c5c(C)c(F)cc6[nH]ncc56)c(C5CC5)cc5c(N6CC7CC6CN7)nc(OC6CCOCC6)nc45)cc3)nn2)cc1 (stereo not drawn) — plasma concentration (mouse PK-59 xenograft, plasma; intravenous, 10 mg/kg, 144 h): 0 ng/mL
COc1cc(C(=O)OCCCN2CCCN(CCCOC(=O)c3cc(OC)c(OC)c(OCc4ccc([N+](=O)[O-])cc4)c3)CC2)cc(OC)c1OC — rotarod fall latency (naive mice, mixed sexes; intrathecal, 100 nmol, before dosing): 61 s and 83 s and 78 s and 65 s and 70 s and 73 s
Cc1ncsc1-c1ccc(C(CO)NC(=O)C2CC(O)CN2C(=O)C(NC(=O)c2ccc(COc3c(-c4c(C)c(F)cc5[nH]ncc45)c(C4CC4)cc4c(N5CC6CC5CN6)nc(OC5CCOCC5)nc34)cc2)C(C)C)cc1 (stereo not drawn) — viability (ASPC1; cell growth or viability, ATP luminescence; 0.3 µM, 6 days): 38% and 25.4% and 25.5% and 29.8% and 33.3% and 25.2%
Cc1ncsc1-c1ccc(C2(NC(=O)C3CC(O)CN3C(=O)C(NC(=O)c3ccc(COc4c(-c5c(C)c(F)cc6[nH]ncc56)c(C5CC5)cc5c(N6CC7CC6CN7)nc(OC6CCOCC6)nc45)cc3)C(C)(C)C)CC2)cc1 (stereo not drawn) — koff (VHL with Elongin B/C; SPR, single-cycle; immobilized VCB complex; binary): 0.053 s⁻¹ and 0.0418 s⁻¹ and 0.0412 s⁻¹
Cc1ncsc1-c1ccc(C2(NC(=O)C3CC(O)CN3C(=O)C(NC(=O)c3ccc(COc4c(-c5c(C)c(F)cc6[nH]ncc56)c(C5CC5)cc5c(N6CC7CC6CN7)nc(OC6CCOCC6)nc45)cc3)C(C)C)CC2)cc1 (stereo not drawn) — koff (VHL with Elongin B/C; SPR, single-cycle; immobilized VCB complex; binary): 0.0526 s⁻¹ and 0.0411 s⁻¹ and 0.0788 s⁻¹

Some of these lines once more (block 5):
MAP3K15 (Homo sapiens, UniProt Q6ZN16); binding, competition with immobilised ligand; 1 µM: 81%
Tyrosine-protein kinase ABL1, non-phosphorylated (ABL1, Homo sapiens, UniProt P00519, T315I); binding, competition with immobilised ligand; 1 µM: 100%
Tyrosine-protein kinase ABL1, non-phosphorylated (ABL1, Homo sapiens, UniProt P00519, F317L); binding, competition with immobilised ligand; 1 µM: 44%
MUSK (Homo sapiens, UniProt O15146); binding, competition with immobilised ligand; 1 µM: 88%
MAPK7 (Homo sapiens, UniProt Q13164); binding, competition with immobilised ligand; 1 µM: 99%
